Results gathered from unrelated publications.
Compare with care: the assays were run in different laboratories. ± marks the error that the study gave.
Cell line: HepG2

SMILES | test | test system | conditions | how to read | endpoint | result
O=S(=O)(c1ccc(-c2ccc3c(Nc4ccc(OCc5ccccc5)c(Cl)c4)ccnc3c2)cc1)N1CCOCC1 | cytotoxicity, MTT | – | 48 h | – | TC50 | > 3 µM
Cc1ccc(N)cc1N | – | – | maximum tested, 24 (unit not given) | – | micronucleated cells | 0.5%
O=S(=O)(c1ccc(-c2ccc3nccc(Nc4ccncc4)c3c2)cc1)N1CCOCC1 | cytotoxicity, MTT | – | 48 h | – | TC50 | > 20 µM
Cc1ccc(OCCc2cc(F)cc(F)c2)c(C(N)=O)c1 | – | galactose medium | 3 (unit not given) | – | CC50 | 65 ± 22 µM
Cc1cc2c(=O)n(Cc3cncnc3)c(=S)[nH]c2cn1 | – | – | 24 h | – | LD50 | > 100 µM
N.N.[Cl][Pt][Cl] | micronucleus formation | – | – | – | lowest effective concentration | 0.8 µM
O=S(=O)(c1ccc(-c2ccc3ncccc3c2)cc1)N1CCOCC1 | cytotoxicity, MTT | – | 48 h | – | TC50 | > 20 µM
O=S(=O)(c1ccc(-c2ccc3c(Nc4ccc(OCc5ccccc5)c(Cl)c4)nncc3c2)cc1)N1CCOCC1 | cytotoxicity, MTT | – | 48 h | – | TC50 | > 15 µM
O=C/C=C/c1ccccc1 | MTT | – | 3.1 to 50 µg/mL, 48 h, 10% FBS | – | viability | > 90%
Fc1cccc(COc2ccc(Nc3ccnc4cc(-c5cccc(N6CCOCC6)c5)ccc34)cc2Cl)c1 | cytotoxicity, MTT | – | 48 h | – | TC50 | > 5 µM
COc1ccc(Nc2ccnc3ccc(-c4ccc(S(=O)(=O)N5CCOCC5)cc4)cc23)cc1C | cytotoxicity, MTT | – | 48 h | – | TC50 | 9 µM
CN1CCCN(S(=O)(=O)c2ccc(-c3ccc4ccnc(Nc5ccc(OCc6cccc(F)c6)c(Cl)c5)c4c3)cc2)CC1 | cytotoxicity, MTT | – | 48 h | – | TC50 | > 15 µM
Cc1nnc(Nc2ccnc3ccc(-c4ccc(S(=O)(=O)N5CCOCC5)cc4)cc23)nc1C | cytotoxicity, MTT | – | 48 h | – | TC50 | > 20 µM
Cc1ccc(OCCc2cccc(F)c2)c(C(N)=O)c1 | – | galactose medium | 3 (unit not given) | – | CC50 | 40 ± 6.5 µM
CN(C)N=O | – | – | maximum tested | – | micronucleated cells | 0.8%
C[C@H]1CCC/C=C/[C@@H]2C[C@H](O)C[C@H]2[C@H](O)/C=C/C(=O)O1 | – | – | 72 h | relative to: HepG2 CC50 over EC50 | selectivity index | 987
O=c1c2cc(Cl)c(CO)cc2[nH]c(=S)n1Cc1cccnc1 | – | – | 24 h | – | LD50 | > 100 µM
Cc1nc(-c2ccc(OCCc3cccc(F)c3)c(C(N)=O)c2)cs1 | – | galactose medium | 3 (unit not given) | – | CC50 | 40 ± 20 µM
Cc1cc(Nc2ccnc3ccc(-c4ccc(S(=O)(=O)N5CCOCC5)cc4)cc23)on1 | cytotoxicity, MTT | – | 48 h | – | TC50 | > 20 µM
NC(=O)c1cc(Br)ccc1OCCc1cccc(F)c1 | – | galactose medium | 3 (unit not given) | – | CC50 | 52 ± 0.5 µM

SMILES | test | test system | conditions | how to read | endpoint | result
O=S(=O)(c1ccc(-c2ccc3cnnc(Nc4ccc(OCc5ccccc5)c(Cl)c4)c3c2)cc1)N1CCOCC1 | cytotoxicity, MTT | – | 48 h | – | TC50 | > 5.2 µM
CCn1nccc1Nc1ccnc2ccc(-c3ccc(S(=O)(=O)N4CCOCC4)cc3)cc12 | cytotoxicity, MTT | – | 48 h | – | TC50 | > 20 µM
CCC(C)(O)c1ccc(OCCc2cccc(F)c2)c(C(N)=O)c1 (stereo not drawn) | – | galactose medium | 3 (unit not given) | – | CC50 | 53 µM
O=c1ccc2ccccc2o1 | refers to: cell count | – | concentration not given, 24 h, phospholipidosis and steatosis panel | – | probability of response | 39.6%
Cc1noc(C)c1Nc1ccnc2ccc(-c3ccc(S(=O)(=O)N4CCOCC4)cc3)cc12 | cytotoxicity, MTT | – | 48 h | – | TC50 | > 20 µM
CCN(N=O)C(N)=O | – | – | maximum tested, 24 (unit not given) | relative to: vehicle | micronuclei fold increase | 2 fold
Cc1cnc(OCCc2cccc(F)c2)c(C(N)=O)c1 | – | galactose medium | 3 (unit not given) | – | CC50 | 55 ± 22 µM
C[n+]1cc2c3c(ccc2c2ccc4cc5c(cc4c21)OCO5)OCO3 | – | – | 72 h | relative to: HepG2 CC50 over EC50 | selectivity index | 32
COCCNC(=O)c1cc(-c2ccoc2)ccc1OCCc1cccc(F)c1 | – | galactose medium | 3 (unit not given) | – | CC50 | > 100 µM
[Cl][Cd][Cl] | micronucleus formation | – | – | – | lowest effective concentration | 1.5 µM
CC(C)(O)c1ccc(OCCc2cccc(F)c2)c(C(N)=O)c1 | – | galactose medium | 3 (unit not given) | – | CC50 | 78 ± 13 µM
Cc1c2ccccc2c(C)c2c1ccc1ccccc12 | – | – | maximum tested, 24 (unit not given) | – | micronucleated cells | 0.9%
N#Cc1cnc2ccc(-c3cccc(N4CCOCC4)c3)cc2c1Nc1ccc(OCc2ccccc2)c(Cl)c1 | cytotoxicity, MTT | – | 48 h | – | TC50 | > 15 µM
Cc1cnc(Nc2ccnc3ccc(-c4ccc(S(=O)(=O)N5CCOCC5)cc4)cc23)s1 | cytotoxicity, MTT | – | 48 h | – | TC50 | > 20 µM
CN1CCN(S(=O)(=O)c2ccc(-c3ccc4c(Nc5ccc(OCc6cccc(F)c6)c(Cl)c5)nncc4c3)cc2)CC1 | cytotoxicity, MTT | – | 48 h | – | TC50 | > 15 µM
CC(c1cncnc1)n1c(=S)[nH]c2ccc(Cl)cc2c1=O (stereo not drawn) | – | – | 24 h | – | LD50 | > 100 µM
CC[C@H](C)[C@H](NC(=O)[C@H](CCCCN)NC(=O)[C@H](CCCCN)NC(=O)[C@H](Cc1ccccc1)NC(=O)[C@@H](NC(=O)[C@@H](NC(=O)[C@H](CCCNC(=N)N)NC(=O)[C@H](Cc1ccccc1)NC(=O)[C@@H](NC(=O)[C@H](CCCCN)NC(=O)[C@H](CCCCN)NC(=O)[C@@H](N)CCSC)[C@@H](C)CC)C(C)C)[C@@H](C)CC)C(=O)N[C@@H](CC(C)C)C(=O)N[C@@H](CCCCN)C(=O)N[C@@H](CCCNC(=N)N)C(=O)N[C@@H](CC(C)C)C(=O)N[C@H](C(=O)N[C@H](C(=O)O)C(C)C)[C@@H](C)CC | CCK-8 | – | 64 µg/mL, 24 h | – | viability | 7.96%
O=S(=O)(c1ccc(-c2ccc3nccc(Nc4ccc(OCc5ccccc5)c(Cl)c4)c3c2)cc1)N1CCOCC1 | cytotoxicity, MTT | – | 48 h | – | TC50 | > 5 µM
OB(O)CSc1nc2ccccc2n1Cc1ccc(C(F)(F)F)cc1C(F)(F)F | XTT | – | 64 mg/L | – | viability | 100%
